# Measurements gathered from unrelated publications.
# Each line is one published result; not all experiments were run side by side. Numbers after ± are the reported error.
# DRD3: D(3) dopamine receptor (DRD3, Homo sapiens, UniProt P35462)
# Sequence of UniProt P35462 (whole entry, looked up): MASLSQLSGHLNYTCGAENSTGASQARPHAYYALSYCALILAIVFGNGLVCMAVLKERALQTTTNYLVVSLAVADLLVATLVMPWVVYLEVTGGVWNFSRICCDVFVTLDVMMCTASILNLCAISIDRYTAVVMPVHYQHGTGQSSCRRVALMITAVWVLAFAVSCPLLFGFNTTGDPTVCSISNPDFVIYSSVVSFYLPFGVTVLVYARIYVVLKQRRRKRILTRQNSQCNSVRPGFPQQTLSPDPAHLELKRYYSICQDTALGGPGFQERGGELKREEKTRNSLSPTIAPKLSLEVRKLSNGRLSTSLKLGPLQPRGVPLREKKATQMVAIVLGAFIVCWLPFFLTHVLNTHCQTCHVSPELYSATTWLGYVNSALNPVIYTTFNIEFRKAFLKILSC
# Ugcg: Ceramide glucosyltransferase (Ugcg, Mus musculus, UniProt O88693)
# Sequence of UniProt O88693 (whole entry, looked up): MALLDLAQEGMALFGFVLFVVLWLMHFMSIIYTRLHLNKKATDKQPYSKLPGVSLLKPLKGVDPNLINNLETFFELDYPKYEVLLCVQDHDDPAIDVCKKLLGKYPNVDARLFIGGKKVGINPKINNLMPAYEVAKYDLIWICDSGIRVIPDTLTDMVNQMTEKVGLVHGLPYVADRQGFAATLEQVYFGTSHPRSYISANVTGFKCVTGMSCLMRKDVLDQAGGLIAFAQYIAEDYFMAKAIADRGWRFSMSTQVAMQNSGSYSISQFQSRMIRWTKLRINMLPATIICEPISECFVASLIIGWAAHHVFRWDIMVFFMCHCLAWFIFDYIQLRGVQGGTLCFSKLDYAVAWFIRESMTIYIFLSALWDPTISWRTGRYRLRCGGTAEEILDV
# Sequence of UniProt P25103 (whole entry, unmodified, looked up): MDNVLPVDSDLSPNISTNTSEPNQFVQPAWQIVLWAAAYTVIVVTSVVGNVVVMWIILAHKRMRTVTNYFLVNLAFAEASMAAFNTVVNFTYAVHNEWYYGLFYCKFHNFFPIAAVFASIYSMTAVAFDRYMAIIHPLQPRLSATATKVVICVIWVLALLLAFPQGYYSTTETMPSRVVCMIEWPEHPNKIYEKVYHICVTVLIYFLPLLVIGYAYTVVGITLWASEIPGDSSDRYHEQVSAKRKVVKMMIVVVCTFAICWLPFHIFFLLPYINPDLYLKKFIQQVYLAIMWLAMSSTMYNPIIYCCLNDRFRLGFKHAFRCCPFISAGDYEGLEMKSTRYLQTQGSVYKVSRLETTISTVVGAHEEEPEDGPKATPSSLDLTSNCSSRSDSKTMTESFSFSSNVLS
# Sequence of UniProt P43250 (whole entry, looked up): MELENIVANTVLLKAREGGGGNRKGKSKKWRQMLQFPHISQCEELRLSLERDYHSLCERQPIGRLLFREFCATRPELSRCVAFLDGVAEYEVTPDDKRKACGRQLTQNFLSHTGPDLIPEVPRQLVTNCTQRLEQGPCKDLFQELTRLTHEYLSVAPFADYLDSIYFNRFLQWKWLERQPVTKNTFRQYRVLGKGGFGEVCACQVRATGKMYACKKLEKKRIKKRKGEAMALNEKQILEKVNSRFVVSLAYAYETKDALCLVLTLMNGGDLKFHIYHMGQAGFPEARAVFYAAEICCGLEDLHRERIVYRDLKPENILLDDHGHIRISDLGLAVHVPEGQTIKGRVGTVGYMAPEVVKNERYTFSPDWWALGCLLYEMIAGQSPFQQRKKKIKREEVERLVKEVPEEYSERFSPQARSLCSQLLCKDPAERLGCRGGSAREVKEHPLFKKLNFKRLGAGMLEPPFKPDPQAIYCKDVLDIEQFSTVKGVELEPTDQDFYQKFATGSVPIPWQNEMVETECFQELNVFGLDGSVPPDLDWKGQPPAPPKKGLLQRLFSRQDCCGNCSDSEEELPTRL
# Sequence of UniProt P00519 (whole entry, looked up): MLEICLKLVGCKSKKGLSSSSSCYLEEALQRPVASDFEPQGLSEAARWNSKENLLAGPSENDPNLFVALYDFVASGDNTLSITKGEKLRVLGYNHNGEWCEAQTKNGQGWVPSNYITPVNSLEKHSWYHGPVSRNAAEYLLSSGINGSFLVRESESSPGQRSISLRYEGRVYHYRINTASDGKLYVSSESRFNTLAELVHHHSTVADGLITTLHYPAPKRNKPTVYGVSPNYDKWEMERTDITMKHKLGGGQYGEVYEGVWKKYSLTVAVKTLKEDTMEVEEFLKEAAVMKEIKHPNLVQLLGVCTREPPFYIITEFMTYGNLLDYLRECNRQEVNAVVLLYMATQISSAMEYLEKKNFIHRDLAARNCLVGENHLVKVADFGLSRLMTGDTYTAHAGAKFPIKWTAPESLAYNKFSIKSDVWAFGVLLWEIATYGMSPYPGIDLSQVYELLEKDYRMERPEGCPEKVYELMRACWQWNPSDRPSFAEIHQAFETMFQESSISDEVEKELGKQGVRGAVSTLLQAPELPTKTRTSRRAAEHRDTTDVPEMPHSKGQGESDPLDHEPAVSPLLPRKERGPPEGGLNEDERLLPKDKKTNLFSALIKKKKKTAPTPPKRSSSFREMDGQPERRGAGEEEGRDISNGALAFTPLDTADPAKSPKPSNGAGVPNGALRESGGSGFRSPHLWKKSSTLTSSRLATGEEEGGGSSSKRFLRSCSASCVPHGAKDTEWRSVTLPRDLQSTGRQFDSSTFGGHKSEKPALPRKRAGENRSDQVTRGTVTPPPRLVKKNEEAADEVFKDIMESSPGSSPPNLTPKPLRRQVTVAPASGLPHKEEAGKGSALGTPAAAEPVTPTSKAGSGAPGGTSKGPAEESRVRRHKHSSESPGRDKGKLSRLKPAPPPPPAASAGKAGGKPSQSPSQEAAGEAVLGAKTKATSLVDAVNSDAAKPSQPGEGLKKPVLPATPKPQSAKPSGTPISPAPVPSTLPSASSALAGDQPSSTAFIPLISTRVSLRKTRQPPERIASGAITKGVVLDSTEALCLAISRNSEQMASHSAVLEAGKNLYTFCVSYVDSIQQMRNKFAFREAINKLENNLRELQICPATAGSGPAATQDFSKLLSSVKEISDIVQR
# Sequence of UniProt P00761 (whole entry, looked up): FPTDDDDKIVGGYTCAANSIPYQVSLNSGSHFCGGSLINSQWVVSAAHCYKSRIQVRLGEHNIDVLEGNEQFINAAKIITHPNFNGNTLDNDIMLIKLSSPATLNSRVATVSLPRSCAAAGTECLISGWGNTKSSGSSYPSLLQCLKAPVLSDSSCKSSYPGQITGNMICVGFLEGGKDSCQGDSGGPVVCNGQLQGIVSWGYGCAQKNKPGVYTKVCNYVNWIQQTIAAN
# Sequence of UniProt P04629 (whole entry, looked up): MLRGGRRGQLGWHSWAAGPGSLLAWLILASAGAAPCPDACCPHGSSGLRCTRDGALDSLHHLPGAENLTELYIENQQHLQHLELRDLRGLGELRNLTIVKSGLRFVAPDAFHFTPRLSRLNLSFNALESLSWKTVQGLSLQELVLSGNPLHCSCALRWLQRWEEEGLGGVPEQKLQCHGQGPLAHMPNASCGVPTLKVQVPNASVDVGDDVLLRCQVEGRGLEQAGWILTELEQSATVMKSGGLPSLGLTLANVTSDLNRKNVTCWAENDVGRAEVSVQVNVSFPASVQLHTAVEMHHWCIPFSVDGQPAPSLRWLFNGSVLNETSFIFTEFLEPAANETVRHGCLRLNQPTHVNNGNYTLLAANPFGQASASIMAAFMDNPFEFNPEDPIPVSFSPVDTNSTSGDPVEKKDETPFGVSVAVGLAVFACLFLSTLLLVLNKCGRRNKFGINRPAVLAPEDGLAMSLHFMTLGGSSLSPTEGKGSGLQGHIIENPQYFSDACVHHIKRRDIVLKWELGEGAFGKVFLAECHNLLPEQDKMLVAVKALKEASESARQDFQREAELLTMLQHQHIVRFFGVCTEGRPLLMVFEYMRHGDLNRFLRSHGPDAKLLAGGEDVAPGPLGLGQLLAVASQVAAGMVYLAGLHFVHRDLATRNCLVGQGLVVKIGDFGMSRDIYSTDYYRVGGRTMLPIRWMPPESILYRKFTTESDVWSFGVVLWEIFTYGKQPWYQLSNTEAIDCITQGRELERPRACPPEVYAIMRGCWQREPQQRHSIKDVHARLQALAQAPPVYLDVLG
# Sequence of UniProt Q04609 (whole entry, looked up): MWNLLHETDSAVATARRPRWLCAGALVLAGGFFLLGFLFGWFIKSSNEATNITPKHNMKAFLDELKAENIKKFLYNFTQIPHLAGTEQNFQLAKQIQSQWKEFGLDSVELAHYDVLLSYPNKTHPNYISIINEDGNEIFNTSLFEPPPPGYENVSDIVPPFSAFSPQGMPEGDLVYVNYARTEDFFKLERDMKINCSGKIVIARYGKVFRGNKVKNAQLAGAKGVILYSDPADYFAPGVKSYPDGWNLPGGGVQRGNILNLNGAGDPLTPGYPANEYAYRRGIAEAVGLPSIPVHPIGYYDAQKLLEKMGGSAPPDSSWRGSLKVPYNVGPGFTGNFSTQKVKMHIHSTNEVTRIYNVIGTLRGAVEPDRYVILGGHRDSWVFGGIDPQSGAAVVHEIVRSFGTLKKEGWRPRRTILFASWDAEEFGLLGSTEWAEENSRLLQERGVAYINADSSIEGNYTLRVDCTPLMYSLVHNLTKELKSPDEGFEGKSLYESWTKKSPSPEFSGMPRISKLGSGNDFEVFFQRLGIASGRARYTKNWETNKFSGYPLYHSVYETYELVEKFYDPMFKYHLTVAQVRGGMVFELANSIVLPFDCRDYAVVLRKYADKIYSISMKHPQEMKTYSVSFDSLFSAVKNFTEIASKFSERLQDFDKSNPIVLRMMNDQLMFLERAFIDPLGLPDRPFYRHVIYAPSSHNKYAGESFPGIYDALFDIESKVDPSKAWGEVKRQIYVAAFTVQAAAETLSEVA
# Sequence of UniProt P62258 (whole entry, looked up): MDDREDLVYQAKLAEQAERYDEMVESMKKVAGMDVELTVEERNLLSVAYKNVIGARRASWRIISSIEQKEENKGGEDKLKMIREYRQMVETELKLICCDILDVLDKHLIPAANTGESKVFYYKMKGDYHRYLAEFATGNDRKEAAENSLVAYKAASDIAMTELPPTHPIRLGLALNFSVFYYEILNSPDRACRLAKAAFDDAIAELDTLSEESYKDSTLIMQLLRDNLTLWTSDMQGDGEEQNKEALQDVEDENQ
Structure (SMILES),target or system,test,test system,conditions,quantity,result
O=C([O-])CN1CCN(CC(=O)O)CCN(CC(=O)[O-])[C@@H](Cc2ccc(NC(=S)NCCCCC(NC(=O)CCCCCCC(=O)NCCCC[C@H](NC(=O)N[C@@H](CCC(=O)O)C(=O)O)C(=O)O)C(=O)O)cc2)C1.[Cu+2] (stereo partly shown),"FOLH1 (Homo sapiens, UniProt Q04609)","enzyme activity, inhibitor, fluorescence",,lysate,Ki,6.23 nM
CC(C)(CO)NCc1ccc(-c2cccc(C(F)(F)F)c2)o1,DRD3,"ligand displacement, radioligand",,,Ki,472 nM
OC[C@@H]1[C@@H](O)[C@H](O)[C@@H](O)CN1CCCC/C=C\C12CC3CC(CC(C3)C1)C2,Ugcg,"enzyme activity, inhibitor, fluorescence",,,IC50,35200 nM
OB(O)c1cnn(-c2cccc(Cl)c2)c1,"Trypsin (Sus scrofa, UniProt P00761)","enzyme activity, inhibitor, absorbance",,,Ki,138000 nM
CC[C@@H](CO)NCc1ccc(-c2cc(Cl)ccc2Cl)o1,DRD3,"ligand displacement, radioligand",,,Ki,254 nM
CSCC[C@H](NC(=O)[C@H](CC(C)C)NC(=O)CNC(=O)[C@H](Cc1ccccc1)NC(=O)[C@H](Cc1ccccc1)NC(=O)[C@@H](N)CCC(N)=O)C(N)=O,"TACR1 (Homo sapiens, UniProt P25103, N89D)",agonist,,concentration not given,EC50,631 nM
OC[C@H]1N[C@H](CCCCCOCC23CC4CC(CC(C4)C2)C3)[C@H](O)[C@@H](O)[C@@H]1O,Ugcg,"enzyme activity, inhibitor, fluorescence",,,IC50,50000 nM
CC(=O)Nc1ccc(C2CCCCC2)cc1,,liver microsome stability,mouse liver microsomes,1 µM,hepatic clearance,87 mL/min/kg
c1ccc(OC[C@H]2CN(CCN3CCc4ccccc43)CCO2)nc1,DRD3,"ligand displacement, radioligand",,,Ki,> 10000 nM
O[C@H]1[C@H](O)[C@@H](Cl)C=C[C@@H]1O,yeast alpha-glucosidase,covalent inhibitor,,"pH 7, 37 °C",kinact/Ki,7.7 ± 0.07 M^–1 s^–1
CC(=O)N[C@@H](CCCNC(=N)N)C(=O)N[C@H](C(=O)N[C@@H](CCCCN)C(=O)N[C@@H](CO)C(=O)N[C@@H](CCCNC(=N)N)C(=O)N[C@H](C(=O)N[C@@H](Cc1c[nH]c2ccccc12)C(=O)N[C@@H](C)C(=O)NCC(N)=O)[C@@H](C)OP(=O)(O)O)[C@@H](C)O,"14-3-3 protein epsilon (Homo sapiens, UniProt P62258)",surface plasmon resonance,,298 K,binding free energy,-10.1 ± 0.29 kcal/mol
COCC1CN(C2CCN(c3cc(OC)c(Nc4ncc(Br)c(Nc5ccc6c(c5P(C)(C)=O)OCCO6)n4)cc3C)CC2)C1,"EGFR (Homo sapiens, UniProt P00533, C797S/del746-750/T790M)","kinase activity, TR-FRET",,with: ATP at Km,IC50,0.18 nM
CCCCCNC(=O)C1C(O)C(O)C(O)C(CO)N1CCCC (stereo not shown),Ugcg,"enzyme activity, inhibitor, fluorescence",,,IC50,4000 nM
C=C(NC(=O)c1csc(-c2nc3c(cc2O)-c2nc(cs2)C(=O)NC(C(C)O)C(=O)NC(=C(C)OC)c2nc(cs2)C(=O)NC2c4nc(cs4)C(=O)NC(COC(=O)c4c5c6c(cccc6n4O)COC(=O)C(OC4CC(C)(O)C(N(C)C)C(C)O4)C2OC5)c2nc-3cs2)n1)C(N)=O (stereo not shown),,,"ICR mice, Streptococcus pneumoniae ATCC 49169 infected, immunocompromised, blood","intravenous, 4 mg/kg twice daily",AUC(0-t),0.156 µM·h
Cc1nc(NCCOCCOCCNc2ncc(C(=O)NC3=NN(c4ccc(Cl)c(Cl)c4)CC3)c(C)n2)ncc1C(=O)NC1=NN(c2ccc(Cl)c(Cl)c2)CC1,"Tyrosine-protein kinase ABL1, myristoyl pocket (ABL1, Homo sapiens, UniProt P00519)",,,,Kd,47 nM
OC[C@@H]1[C@@H](O)[C@H](O)[C@@H](O)CN1CCCCCOCCc1ccsc1,Ugcg,"enzyme activity, inhibitor",RAW264.7,"in situ, with: C6-NBD-ceramide",IC50,380 nM
Cc1nn(-c2cccc(N)c2)c(=O)c2cnc(Nc3ccc(N4CCNCC4)cc3)nc12,"GRK6 (Homo sapiens, UniProt P43250)","kinase activity, inhibitor, SelectScreen kinase profiling",,,IC50,> 10000 nM
CC(C)CC(=O)Nc1ccc(C2CCCCC2)cc1,,liver microsome stability,rat liver microsomes,1 µM,hepatic clearance,50 mL/min/kg
N#Cc1ccccc1-c1ccc(COCCCCCN2C[C@H](O)[C@@H](O)[C@H](O)[C@H]2CO)cc1,Ugcg,"enzyme activity, inhibitor, fluorescence",,,IC50,150 nM
CCn1nc(Cl)c2c1-c1cnc(N)c(c1)O[C@H](C)c1cc(F)ccc1-c1nn(C)cc1C2,"NTRK1 (Homo sapiens, UniProt P04629)","enzyme activity, inhibitor, radiometric",,,IC50,53 nM
OC[C@@H]1[C@@H](O)[C@H](O)[C@@H](O)CN1CCCCCCOCC12CC3CC(CC(C3)C1)C2,Ugcg,"enzyme activity, inhibitor, fluorescence",,,IC50,300 nM
COC1(C2=NCCN2)COc2ccccc2O1 (stereo not shown),α2-adrenergic receptor chimera,[3H]compound saturation binding,HEK293 membranes,α2c(NT-TM7)/α2a(CT)-AR chimera,Kd,3.58 ± 1.1 nM

# For quick reference, copied from above:
Structure (SMILES),target or system,test,test system,conditions,quantity,result
Cc1nn(-c2cccc(N)c2)c(=O)c2cnc(Nc3ccc(N4CCNCC4)cc3)nc12,"GRK6 (Homo sapiens, UniProt P43250)","kinase activity, inhibitor, SelectScreen kinase profiling",,,IC50,> 10000 nM
OC[C@@H]1[C@@H](O)[C@H](O)[C@@H](O)CN1CCCCCOCCc1ccsc1,Ugcg,"enzyme activity, inhibitor",RAW264.7,"in situ, with: C6-NBD-ceramide",IC50,380 nM
O[C@H]1[C@H](O)[C@@H](Cl)C=C[C@@H]1O,yeast alpha-glucosidase,covalent inhibitor,,"pH 7, 37 °C",kinact/Ki,7.7 ± 0.07 M^–1 s^–1
